Measurements collected from several papers.
A part holds a random share of what one study measured.

Set 1
Substance: PhoQ, residues 284 288 289 292 302 303 GASLAW
Method: Sort-seq
Refers to: YFP reporter
Sample: E. coli
Notes: PhoQ-PhoP variant library
Added: 10 µM Mg2+
Reference: high Mg2+ state
Direction: higher = stronger signaling
Measurement: fold induction
PhoP, residues 12 14 15 18 19 ICWRQ (Escherichia coli, UniProt P23836): 4.48
PhoP, residues 12 14 15 18 19 VHTVL (Escherichia coli, UniProt P23836): 5.95
PhoP, residues 12 14 15 18 19 TQCLL (Escherichia coli, UniProt P23836): 9.6

Set 2
Target: Interferon regulatory factor 5, full length, phosphomimetic (IRF5, Homo sapiens, UniProt Q13568-2, residues 1-514, S451D/S453D/S456D/S462D)
Method: protein-binding microarray
Form: double-stranded DNA, one strand shown
Sample: in vitro
Concentration: 940 nM top
Notes: 60-bp whole probe
Added: salmon DNA 0.4 mg/ml
Reference: random background probes
Direction: higher = stronger binding
Measurement: fitted relative affinity
Shared flanks, not repeated: GCCTAGCAC … GTCTTGATTCGCTTGACGCTGCTG
TCACCTTGCATGTTTTTGACTGTGCTA: 0.342 z-score
TCATGTTTTGTTTTTCAACTGTGCTAG: 1.37 z-score
TCAGCTCACGCTTTGGAACTGTGCTAG: -0.447 z-score
GACGATTTCGACTTTCGGGACGTGCTA: 1.22 z-score
GACGGTATCAACTATCGGGACGTGCTA: 1.2 z-score
GACGGTTTCGGGTATCCGGACGTGCTA: 10.1 z-score
CACATTCTCTGCTTGGGTCTGTGCTAG: 0.96 z-score
GGCGGTCTCCTTATCCTGACGTGCTAG: 0.522 z-score
CTAATTAGAATTTTCATTAAGTGCTAG: 0.0343 z-score

Set 3
Target: Centromere-binding protein 1, full length, N-terminal tag (CBF1, Saccharomyces cerevisiae, UniProt P17106, residues 1-351)
Chain of UniProt P17106 (whole entry, looked up): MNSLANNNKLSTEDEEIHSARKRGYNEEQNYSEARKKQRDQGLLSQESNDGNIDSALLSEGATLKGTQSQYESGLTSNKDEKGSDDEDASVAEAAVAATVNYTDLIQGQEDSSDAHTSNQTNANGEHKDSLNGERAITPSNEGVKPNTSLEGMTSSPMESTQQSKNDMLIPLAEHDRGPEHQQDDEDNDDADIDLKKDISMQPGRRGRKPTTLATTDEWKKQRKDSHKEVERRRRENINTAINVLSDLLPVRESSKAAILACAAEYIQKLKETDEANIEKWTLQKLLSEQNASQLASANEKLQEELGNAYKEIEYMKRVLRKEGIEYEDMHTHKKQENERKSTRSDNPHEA
Method: protein-binding microarray
Form: double-stranded DNA, one strand shown
Sample: in vitro
Concentration: 0.8 µM
Notes: whole 60-bp probe, no competitor
Direction: higher = stronger binding
Measurement: fluorescence intensity
Shared flanks, not repeated: … GTCTTGATTCGCTTGACGCTGCTG
CCTAACTACTATAATCAGTTGGAATAGCTTCGTACA: 500 a.u.
CTATGAACACCCCGTCACCTGAGTCAGGTAATTTTC: 757 a.u.
CCTAACTACTATAATATCGTGCGATAGCTTCGTACA: 522 a.u.
CTACGTGTTTCGGGACACGTCGCTGAAAAGGATTTC: 525 a.u.
GAATTGAAATGTCATCACGTGGACATTATATCATAG: 15100 a.u.
CTAATACAAATGAACCACGCAATCCTTTACTACTTC: 511 a.u.
CTACAGTTCGATTCTGATGTAGGCAATGGAAGATTC: 569 a.u.
GAAGGTTTTGCGCTAATCGTGCGCCTGATTTTTTAG: 562 a.u.
CTAACATATACTATGCACGTTTTTTATATGACGTTC: 1010 a.u.
CTATTTCAGGGTTGTCAGGAGATCCTTCCCTCATTC: 582 a.u.
GAAAAGGGAACGTGTCACGTGCTTCGTCGTTCATAG: 18200 a.u.
GAATAGCTTGAGAAGGAGGTGATGCGTTACTAATAG: 500 a.u.

Set 4
Target: Histone acetyltransferase KAT6A, winged helix 1, GST fusion (KAT6A, Homo sapiens, UniProt Q92794, residues 1-85)
Method: protein binding microarray
Form: double-stranded DNA, one strand shown
Sample: in vitro
Concentration: not given
Notes: 8-mer, flanks averaged, mean of 2 arrays, mostly near background
Reference: not given
Direction: higher = stronger binding
Measurement: E-score
Construct (chain): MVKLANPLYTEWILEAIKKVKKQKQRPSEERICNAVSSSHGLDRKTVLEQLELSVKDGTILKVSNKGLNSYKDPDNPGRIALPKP
CCCAAACG: -0.0499
GTTCCTTA: -0.12
GACTTAAC: 0.0253
AGTACCCA: -0.0516
ATTGTACA: -0.0361
GAGATCTC: 0.0993
TAGGTATA: -0.0549
ACGAACAA: 0.00456
AACCAGAC: -0.137
AACGGATT: 0.129
CGCCAGAC: 0.188
ACTCGAAG: -0.0877
ACTTGCTA: -0.152
ACAGTCCC: 0.114
CGGATACC: 0.175
GAACACCC: -0.0229
TAACAAGA: -0.197
AAGGGTTG: -0.106
ACACGATG: -0.066
GGAGCGTA: 0.191
GACTCACC: 0.0394
GGGGCAAC: -0.114

A few entries again (set 4):
CGCCAGAC: 0.188
ATTGTACA: -0.0361
ACTTGCTA: -0.152
TAACAAGA: -0.197
GGGGCAAC: -0.114
ACGAACAA: 0.00456
